Published values collected from several papers.
Protocols differ between the studies behind these lines. “And” joins repeats or separate records; there may be more than shown. Numbers after ± are the reported error.
Serine/threonine-protein kinase/endoribonuclease IRE1 N772Y: Serine/threonine-protein kinase/endoribonuclease IRE1 (Mus musculus, UniProt Q9EQY0, N772Y)
Sequence of UniProt Q9EQY0 (whole entry, unmodified, looked up): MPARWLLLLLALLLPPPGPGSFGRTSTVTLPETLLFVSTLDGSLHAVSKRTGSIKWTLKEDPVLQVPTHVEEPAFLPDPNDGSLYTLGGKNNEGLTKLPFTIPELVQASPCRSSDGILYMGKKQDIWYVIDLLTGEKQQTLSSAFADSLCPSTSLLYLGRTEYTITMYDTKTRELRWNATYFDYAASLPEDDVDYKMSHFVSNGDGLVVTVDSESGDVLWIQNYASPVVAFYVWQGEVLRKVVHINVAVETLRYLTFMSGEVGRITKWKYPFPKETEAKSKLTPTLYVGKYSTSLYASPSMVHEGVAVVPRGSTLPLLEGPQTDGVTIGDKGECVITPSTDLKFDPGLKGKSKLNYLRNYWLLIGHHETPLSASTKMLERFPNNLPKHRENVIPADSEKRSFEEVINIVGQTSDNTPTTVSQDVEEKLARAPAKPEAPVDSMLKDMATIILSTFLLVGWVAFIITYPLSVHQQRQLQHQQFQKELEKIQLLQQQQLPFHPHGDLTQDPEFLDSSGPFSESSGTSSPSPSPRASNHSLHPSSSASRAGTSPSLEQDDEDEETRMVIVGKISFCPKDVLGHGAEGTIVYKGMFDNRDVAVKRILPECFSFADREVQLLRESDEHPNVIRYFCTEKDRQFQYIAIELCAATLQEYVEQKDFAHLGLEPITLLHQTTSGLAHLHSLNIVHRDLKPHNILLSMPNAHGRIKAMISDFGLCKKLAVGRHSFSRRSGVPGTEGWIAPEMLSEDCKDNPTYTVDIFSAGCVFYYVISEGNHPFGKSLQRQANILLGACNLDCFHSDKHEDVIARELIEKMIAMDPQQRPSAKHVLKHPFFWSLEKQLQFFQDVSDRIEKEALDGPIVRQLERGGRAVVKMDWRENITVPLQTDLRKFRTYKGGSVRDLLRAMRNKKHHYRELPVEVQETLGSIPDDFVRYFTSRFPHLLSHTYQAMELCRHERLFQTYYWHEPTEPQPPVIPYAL
GATD3: Glutamine amidotransferase-like class 1 domain-containing protein 3, mitochondrial (GATD3, Homo sapiens, UniProt P0DPI2)
Sequence of UniProt P0DPI2 (whole entry, looked up): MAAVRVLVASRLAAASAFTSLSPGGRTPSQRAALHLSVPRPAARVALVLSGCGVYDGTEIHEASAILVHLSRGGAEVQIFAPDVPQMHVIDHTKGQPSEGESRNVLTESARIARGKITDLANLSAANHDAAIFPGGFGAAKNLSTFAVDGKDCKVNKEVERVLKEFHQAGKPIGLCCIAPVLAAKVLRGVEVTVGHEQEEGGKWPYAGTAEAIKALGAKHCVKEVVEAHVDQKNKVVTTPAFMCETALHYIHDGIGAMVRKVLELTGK
FKBP4 FK1 domain: Peptidyl-prolyl cis-trans isomerase FKBP4, FK1 domain (FKBP4, Homo sapiens, UniProt Q02790)
Sequence of UniProt Q02790 (whole entry, looked up): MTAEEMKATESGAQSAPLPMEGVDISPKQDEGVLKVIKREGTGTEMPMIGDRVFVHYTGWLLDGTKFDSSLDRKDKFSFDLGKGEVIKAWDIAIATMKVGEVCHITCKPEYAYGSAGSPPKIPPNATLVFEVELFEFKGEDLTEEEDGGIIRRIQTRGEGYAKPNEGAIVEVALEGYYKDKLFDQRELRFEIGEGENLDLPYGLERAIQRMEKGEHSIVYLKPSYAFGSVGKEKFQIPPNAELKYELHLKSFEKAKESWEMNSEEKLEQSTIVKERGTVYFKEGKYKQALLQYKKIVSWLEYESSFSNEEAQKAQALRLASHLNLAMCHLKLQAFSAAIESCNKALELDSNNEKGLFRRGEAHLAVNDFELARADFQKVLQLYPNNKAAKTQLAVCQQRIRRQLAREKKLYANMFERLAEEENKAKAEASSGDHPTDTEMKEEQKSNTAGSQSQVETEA
ALDH1B1: Aldehyde dehydrogenase X, mitochondrial (ALDH1B1, Homo sapiens, UniProt P30837)
Sequence of UniProt P30837 (whole entry, looked up): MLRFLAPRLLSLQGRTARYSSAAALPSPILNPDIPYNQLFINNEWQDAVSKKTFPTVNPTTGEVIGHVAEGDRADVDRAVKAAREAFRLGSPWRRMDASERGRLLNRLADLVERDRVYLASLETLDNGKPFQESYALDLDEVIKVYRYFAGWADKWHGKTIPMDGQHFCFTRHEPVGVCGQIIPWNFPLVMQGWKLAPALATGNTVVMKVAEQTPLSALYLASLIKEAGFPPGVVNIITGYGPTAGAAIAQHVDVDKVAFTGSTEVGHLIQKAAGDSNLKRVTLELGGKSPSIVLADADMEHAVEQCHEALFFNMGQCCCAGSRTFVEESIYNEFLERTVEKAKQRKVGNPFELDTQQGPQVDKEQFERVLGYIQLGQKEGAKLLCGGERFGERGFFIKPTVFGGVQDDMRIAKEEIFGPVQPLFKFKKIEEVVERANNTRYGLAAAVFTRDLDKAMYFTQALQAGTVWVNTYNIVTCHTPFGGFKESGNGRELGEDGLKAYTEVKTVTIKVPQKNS
Tumor necrosis factor receptor superfamily member 1A extracellular domain: Tumor necrosis factor receptor superfamily member 1A, extracellular domain (Homo sapiens, UniProt P19438)
Sequence of UniProt P19438 (whole entry, looked up): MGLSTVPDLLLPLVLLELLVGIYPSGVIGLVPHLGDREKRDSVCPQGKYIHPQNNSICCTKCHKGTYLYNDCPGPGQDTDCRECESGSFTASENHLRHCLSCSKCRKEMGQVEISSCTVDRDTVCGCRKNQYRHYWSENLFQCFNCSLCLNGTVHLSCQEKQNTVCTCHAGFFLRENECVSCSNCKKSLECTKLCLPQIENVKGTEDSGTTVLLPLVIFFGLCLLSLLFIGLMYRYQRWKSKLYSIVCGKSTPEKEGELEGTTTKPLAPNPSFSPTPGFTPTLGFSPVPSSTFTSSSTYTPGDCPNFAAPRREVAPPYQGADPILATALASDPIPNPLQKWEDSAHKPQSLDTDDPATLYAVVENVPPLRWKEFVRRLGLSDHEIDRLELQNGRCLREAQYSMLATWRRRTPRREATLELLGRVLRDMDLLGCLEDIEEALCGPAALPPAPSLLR
Ugcg: Ceramide glucosyltransferase (Ugcg, Mus musculus, UniProt O88693)
Sequence of UniProt O88693 (whole entry, looked up): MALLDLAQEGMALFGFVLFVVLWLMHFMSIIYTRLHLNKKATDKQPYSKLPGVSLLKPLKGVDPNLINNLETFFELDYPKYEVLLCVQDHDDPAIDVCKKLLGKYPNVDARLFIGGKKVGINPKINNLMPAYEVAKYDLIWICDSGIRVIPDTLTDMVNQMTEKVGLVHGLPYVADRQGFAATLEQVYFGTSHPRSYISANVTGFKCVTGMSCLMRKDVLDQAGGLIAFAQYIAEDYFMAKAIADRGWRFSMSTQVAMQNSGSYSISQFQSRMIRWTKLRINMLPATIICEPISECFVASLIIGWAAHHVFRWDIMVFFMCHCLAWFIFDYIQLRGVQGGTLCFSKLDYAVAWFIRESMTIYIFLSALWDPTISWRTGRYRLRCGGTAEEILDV
CA2: Carbonic anhydrase 2 (CA2, Homo sapiens, UniProt P00918)
Sequence of UniProt P07737 (whole entry, unmodified, looked up): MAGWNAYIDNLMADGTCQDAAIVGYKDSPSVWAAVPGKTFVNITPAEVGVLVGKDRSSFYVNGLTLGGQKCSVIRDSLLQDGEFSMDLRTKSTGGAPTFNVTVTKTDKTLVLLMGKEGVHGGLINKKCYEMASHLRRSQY
Sequence of UniProt Q96AB3 (whole entry, looked up): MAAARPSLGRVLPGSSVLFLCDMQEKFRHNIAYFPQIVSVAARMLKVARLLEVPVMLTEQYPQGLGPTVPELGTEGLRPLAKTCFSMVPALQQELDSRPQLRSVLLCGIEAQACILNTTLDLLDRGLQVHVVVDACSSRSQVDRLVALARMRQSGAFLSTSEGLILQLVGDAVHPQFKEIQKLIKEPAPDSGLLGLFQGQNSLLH
Sequence of UniProt P62937 (whole entry, looked up): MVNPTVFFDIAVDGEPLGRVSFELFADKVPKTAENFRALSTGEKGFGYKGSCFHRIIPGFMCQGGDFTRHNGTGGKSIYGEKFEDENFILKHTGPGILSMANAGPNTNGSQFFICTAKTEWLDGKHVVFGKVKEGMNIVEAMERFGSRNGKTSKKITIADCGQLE
Sequence of UniProt P62258 (whole entry, looked up): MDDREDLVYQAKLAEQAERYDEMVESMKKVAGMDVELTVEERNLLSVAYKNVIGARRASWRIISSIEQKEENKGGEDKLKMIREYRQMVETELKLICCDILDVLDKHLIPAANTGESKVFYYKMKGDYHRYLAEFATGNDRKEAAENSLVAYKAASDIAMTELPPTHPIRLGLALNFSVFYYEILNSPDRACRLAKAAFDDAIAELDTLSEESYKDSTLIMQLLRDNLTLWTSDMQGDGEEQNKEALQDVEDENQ
Sequence of UniProt P14635 (whole entry, looked up): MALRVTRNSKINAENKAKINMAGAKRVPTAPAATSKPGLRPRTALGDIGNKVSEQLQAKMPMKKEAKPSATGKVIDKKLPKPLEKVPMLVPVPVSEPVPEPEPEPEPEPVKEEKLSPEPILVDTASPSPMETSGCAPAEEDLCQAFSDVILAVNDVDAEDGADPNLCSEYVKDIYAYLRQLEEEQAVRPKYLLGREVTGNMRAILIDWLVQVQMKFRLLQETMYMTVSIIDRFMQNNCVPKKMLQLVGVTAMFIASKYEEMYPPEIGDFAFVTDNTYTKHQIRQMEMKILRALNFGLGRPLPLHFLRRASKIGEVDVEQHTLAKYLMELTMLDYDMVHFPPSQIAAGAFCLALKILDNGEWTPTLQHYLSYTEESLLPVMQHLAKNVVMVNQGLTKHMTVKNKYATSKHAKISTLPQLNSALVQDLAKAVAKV
Sequence of UniProt P01317 (whole entry, looked up): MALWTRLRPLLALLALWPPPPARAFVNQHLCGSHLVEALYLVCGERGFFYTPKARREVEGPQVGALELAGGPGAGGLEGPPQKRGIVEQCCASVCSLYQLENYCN
Sequence of UniProt P49761 (whole entry, looked up): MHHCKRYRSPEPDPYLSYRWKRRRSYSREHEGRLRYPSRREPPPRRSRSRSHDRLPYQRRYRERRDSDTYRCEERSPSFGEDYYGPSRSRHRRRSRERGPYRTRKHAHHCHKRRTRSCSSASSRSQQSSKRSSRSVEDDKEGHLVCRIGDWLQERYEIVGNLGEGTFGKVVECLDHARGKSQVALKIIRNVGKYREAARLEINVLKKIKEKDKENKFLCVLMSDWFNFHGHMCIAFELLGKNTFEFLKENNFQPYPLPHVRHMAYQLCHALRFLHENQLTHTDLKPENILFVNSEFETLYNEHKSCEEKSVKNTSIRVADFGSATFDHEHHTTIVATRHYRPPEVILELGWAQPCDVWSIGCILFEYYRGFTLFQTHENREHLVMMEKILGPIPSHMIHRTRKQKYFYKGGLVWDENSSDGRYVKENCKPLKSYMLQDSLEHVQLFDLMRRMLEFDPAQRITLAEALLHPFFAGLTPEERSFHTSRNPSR

| Compound | tested on | assay | system | setting | scale | measurement | result |
| --- | --- | --- | --- | --- | --- | --- | --- |
| COc1cc(-c2ccc(N3CCOCC3)cc2)cc(C=O)c1O | Serine/threonine-protein kinase/endoribonuclease IRE1 N772Y | microscale thermophoresis |  |  |  | Kd | 14.7 µM |
| O=C(NO)c1cnc(NC2(c3cccc(F)c3)CCCCC2)nc1 | GATD3 | inhibitor, competition pulldown | SW620 and MV4-11 lysate | 1 h |  | Kd | > 30.2 µM |
| CCC1C=CC2CCN(C(=O)C3CCC4C=CC5(CCCN5C(=O)C(Cc5ccccc5Cl)NC(C)=O)C(=O)N43)C2C(=O)N1CC(=O)OC (centres unmarked) | Profilin-1 (PFN1, Homo sapiens, UniProt P07737) | binding, NMR |  |  |  | Kd | 630 µM |
| CCn1nc(Cl)c2c1-c1cnc(N)c(c1)O[C@H](C)c1cc(F)ccc1-c1nn(C)cc1C2 | ALK (Homo sapiens, UniProt Q9UM73, S1206R) | enzyme activity, inhibitor |  | together with: 1 mM ATP |  | IC50 | 0.0018 µM |
| COC1(C2=NCCN2)COc2ccccc2O1 (centres unmarked) | α2-adrenergic receptor chimera | [3H]compound saturation binding | HEK293 membranes | α2a(NT)/α2c(TM1-CT)-AR chimera |  | Kd | 0.00174 ± 0.00021 µM |
| C=CCN=S(=O)(c1cc(Cl)cc(Cl)c1)N1C2CCCC1C(C=C)CN(Cc1ccccn1)C2=O (centres unmarked) | FKBP4 FK1 domain | competitive fluorescence polarization |  | protein 10 nM, together with: 1 nM tracer |  | Kd | > 40 µM |
| Cc1c(Cl)cccc1Nc1ccccc1C(=O)O | ALDH1B1 | binding, SPR |  |  |  | Kd | 14.1 µM |
| Cc1nn(-c2cccc(N)c2)c(=O)c2cnc(Nc3ccc(N4CCNCC4)cc3)nc12 | CLK3 (Homo sapiens, UniProt P49761) | enzyme activity, inhibitor |  |  |  | IC50 | > 10 µM |
| O=C(CCc1ccccc1)Nc1ccc(-c2ccnc(C(=O)O)c2)cc1 | Tumor necrosis factor receptor superfamily member 1A extracellular domain | binding, SPR OneStep |  |  |  | Kd | 550 ± 157 µM |
| F[B-]1(F)OC(c2ccc(-n3c4ccccc4c4ccccc43)cc2)=Nc2sc3cc(C(F)(F)F)ccc3[n+]21 | Insulin, amyloid fibrils (INS, Bos taurus, UniProt P01317) | binding, fluorescence saturation |  |  |  | Kd | 0.243 ± 0.086 µM |
| CCCCOc1ccc(CC(=O)NO)cc1 | ALDH1B1 | binding, SPR |  |  |  | Kd | 1.86 µM |
| CCCCCCCCOCCCCCN1C[C@H](O)[C@@H](O)[C@H](O)[C@@H]1CO | Ugcg | enzyme activity, inhibitor, C6-NBD-ceramide in situ | RAW264.7 | together with: C6-NBD-ceramide |  | IC50 | 0.05 µM |
| CN(C)c1ccc2c(c1)C(=O)N(CCc1ccc(S(N)(=O)=O)cc1)C2=O | CA2 | binding |  |  |  | Kd | 0.27 µM |
| CC(=O)N[C@@H](CCCNC(=N)N)C(=O)N[C@H](C(=O)N[C@@H](CCCCN)C(=O)N[C@@H](CO)C(=O)N[C@@H](CCCNC(=N)N)C(=O)N[C@H](C(=O)N[C@@H](Cc1c[nH]c2ccccc12)C(=O)N[C@@H](C)C(=O)NCC(=O)N[C@@H](CCC(=O)O)C(=O)N[C@@H](CCCCN)C(=O)N[C@@H](CO)C(=O)N[C@@H](CCCCN)C(=O)N[C@@H](CCCNC(=N)N)C(N)=O)[C@@H](C)OP(=O)(O)O)[C@@H](C)O | 14-3-3 protein epsilon (Homo sapiens, UniProt P62258) | binding, SPR |  | pH 7.4 |  | Kd | 0.144 µM |
| O=C1C2CCCC(C(C(O)CO)CN1Cc1ccccn1)N2S(=O)(=Nc1ccccc1)c1cc(Cl)cc(Cl)c1 (centres unmarked) | FKBP4 FK1 domain | competitive fluorescence polarization |  | protein 10 nM, together with: 1 nM tracer |  | Kd | > 40 µM |
| C=CC(=O)Nc1cccc(Cn2ncc3cnc(Nc4cnn(CCOC)c4)nc32)c1 | FGFR1 human | binding, KINOMEscan |  | 100 nM | lower = stronger binding | percent of control | 27% |
| Nc1ncc(-c2cc(-c3cnn(CC(F)(F)F)c3)ncc2F)nc1C(=O)NC1CNCC(F)C1 (centres unmarked) | PHKG2 | KINOMEscan |  | 1 µM | relative to: DMSO control | remaining binding | 100% |
| Cn1ncc2cc(-c3cncc(Cl)c3N3CCC4(CCNC4=O)CC3)ccc21 | G2/mitotic-specific cyclin-B1 (Homo sapiens, UniProt P14635) | SILAC displacement | LS174T-L5 cell lysate |  |  | Kd | 8.78 µM |
| C=CC(=O)N1C[C@H](C)N(c2nc(OC[C@@]34CCCN3C[C@H](F)C4)nc3c(F)c(-c4ccc(F)c5sc(N)c(C#N)c45)c(C(F)(F)F)cc23)C[C@H]1C | GTPase KRas, GDP-bound (KRAS, Homo sapiens, UniProt P01116, G12D) | SPR |  |  |  | Kd | 0.00552 ± 0.0013 µM |

| Compound | tested on | assay | system | setting | scale | measurement | result |
| --- | --- | --- | --- | --- | --- | --- | --- |
| CC(=O)OCC1C=C(C2(C)CCCCC2)CCC1COC(C)=O (single isomer, unassigned; (+)) | PPIA (Homo sapiens, UniProt P62937) | binding, SPR |  | pH 4.5 |  | Kd | > 10 µM |
| N#CCNC(=O)c1ccc(C2CCCCC2)cc1 |  | hepatocyte stability | cryopreserved rat hepatocytes | 1 µM |  | hepatic clearance | 49 mL/min/kg |
| CC(C)=CCC/C(C)=C/CC/C(C)=C/COCCCCCN1C[C@H](O)[C@@H](O)[C@H](O)[C@@H]1CO | Ugcg | enzyme activity, inhibitor, fluorescence |  |  |  | IC50 | 2.5 µM |
| COC1CN([C@H]2CC[C@H]([C@@]3(C)Oc4c(Cl)cc(C(=O)NCc5c(SC)cc(C)[nH]c5=O)c(C)c4O3)CC2)C1 |  | RNA-seq, refers to: P2RY14 mouse homolog | mouse, HT-1376 xenograft, whole blood | dose not given | relative to: vehicle | log2 fold change | 0.934 |
| Cc1n[nH]c(C)c1C(c1ccc(Br)cc1)c1c(C)n[nH]c1C | Profilin-1 (PFN1, Homo sapiens, UniProt P07737, H120E) |  |  |  |  | Kd | 47.9 µM |
| Cc1ccc(-c2ccnc(C(=O)O)c2)cc1 | Tumor necrosis factor receptor superfamily member 1A extracellular domain | binding, SPR OneStep |  |  |  | Kd | 1020 ± 120 µM |
| CC[C@H](C)[C@H](NC(=O)[C@H](Cc1ccc(O)cc1)NC(=O)[C@H](CC(N)=O)NC(=O)[C@@H](NC(=O)[C@H](CCCNC(=N)N)NC(=O)[C@H](CC(=O)O)NC(=O)CNC(=O)[C@@H](NC(=O)[C@H](CCC(=O)O)NC(=O)[C@H](CCCCN)NC(=O)[C@@H](NC(=O)[C@H](CCC(N)=O)NC(=O)[C@@H](NC(=O)[C@H](CS)NC(=O)[C@H](CCSC)NC(=O)[C@H](CCC(N)=O)NC(=O)[C@H](CCC(=O)O)NC(=O)[C@@H](NC(=O)[C@H](CCCNC(=N)N)NC(=O)[C@H](CCC(=O)O)NC(=O)[C@H](Cc1ccccc1)NC(C)=O)C(C)C)[C@@H](C)CC)[C@@H](C)CC)C(C)C)C(C)C)C(=O)N[C@@H](CCCCN)C(=O)N[C@@H](CCCNC(=N)N)C(=O)N[C@@H](CO)C(=O)N[C@@H](CC(C)C)C(N)=O | BAK1 (Homo sapiens, UniProt Q16611) | binding, FP |  | pH 8 |  | Kd | > 20 µM |
| COc1cc(-c2ccc3c(c2)OCCN3C)cc(C=O)c1O | Serine/threonine-protein kinase/endoribonuclease IRE1 N772Y | microscale thermophoresis |  |  |  | Kd | 13.3 µM |
| O=C(O)c1cncc(-c2ccc(F)cc2)c1 | Tumor necrosis factor receptor superfamily member 1A extracellular domain | binding, SPR OneStep |  |  |  | Kd | 1910 ± 10 µM |
| CCc1nc2cc3ccccc3cc2cc1C(=O)N1CCC[C@H]1C(=O)N[C@@H](C/C=C/C[C@H](NC(=O)[C@@H]1CCCN1C(=O)c1cc2cc3ccccc3cc2nc1CC)C(=O)N[C@@H](CCCCN)C(=O)NCCCN)C(=O)N[C@@H](CCCCN)C(=O)NCCCN | (CUG)2 RNA | SPR |  |  |  | Kd | 0.033 µM |
| C=CC1CN(Cc2ccccn2)C(=O)C2CCCC1N2S(=O)(=NC)c1cc(Cl)cc(Cl)c1 (centres unmarked) | FKBP4 FK1 domain | competitive fluorescence polarization |  | protein 10 nM, together with: 1 nM tracer |  | Kd | > 40 µM |
| CC(/C=C/C(=O)NO)=C\[C@@H](C)C(=O)c1ccc(N(C)C)cc1 | Isochorismatase domain-containing protein 2 (ISOC2, Homo sapiens, UniProt Q96AB3) | inhibitor, competition pulldown | SW620 and MV4-11 lysate | 1 h |  | Kd | > 30.2 µM |
| CN(C)c1ccc2c(c1)C(=O)N(CCc1ccc(O)cc1)C2=O | CA2 | binding |  |  |  | Kd | 9.03 µM and ~9 µM |
| COc1ccc(C(=O)NO)cc1NC(=O)c1ccc(-c2ccccc2)cc1 | GATD3 | inhibitor, competition pulldown | SW620 and MV4-11 lysate | 1 h |  | Kd | > 30.2 µM |
| O=C(O[C@@H]1Cc2c(O)cc(O)cc2O[C@@H]1c1cc(O)c(O)c(O)c1)c1cc(O)c(O)c(O)c1 | grass carp GPBAR1 | binding, microscale thermophoresis | HEK-293T lysate |  |  | Kd | 4.22 ± 0.68 µM |
| CC[C@H](C)[C@H](NC(=O)[C@@H](NC(=O)[C@H](CO)NC(=O)[C@@H](NC(=O)[C@@H]1CCCN1C(=O)[C@H](CC(C)C)NC(=O)[C@H](CCCNC(=N)N)NC(=O)[C@H](CO)NC(=O)[C@H](CC(N)=O)NC(=O)[C@H](C)N)[C@@H](C)O)[C@@H](C)CC)C(=O)O | Na(+)/H(+) exchange regulatory cofactor NHE-RF2 (Homo sapiens, UniProt Q15599) | binding, FP |  |  |  | Kd | > 1000 µM |
| O=C(O)CCC(NC(=O)NC(CCCCNC(=O)C(Cc1ccc2ccccc2c1)NC(=O)C1CCC(CNC(=O)CCCCCNC(=S)Nc2ccc3c(c2)C(=O)OC32c3ccc(O)cc3Oc3cc(O)ccc32)CC1)C(=O)O)C(=O)O (centres unmarked) | FOLH1 (Homo sapiens, UniProt Q04609) | cell-free assay, FP |  |  |  | Kd | 0.00053 µM |
| N#CCNC(=O)c1ccc([C@H]2[C@@H](F)[C@@H](F)C[C@@H](F)[C@H]2F)cc1 |  | liver microsome stability | dog liver microsomes | 1 µM |  | hepatic clearance | 11 mL/min/kg |
| C[n+]1c(/C=C/c2ccc(N(c3ccccc3)c3ccccc3)cc2)cc(/C=C2\Sc3ccccc3N2CCCN2CCCC2)c2ccccc21 | Telo21 DNA | isothermal titration calorimetry |  | pH 7.4, 25 °C, 2% DMSO |  | Kd | 36.5 µM |
